Published values pooled from the literature.
Lines come from different studies, so protocols differ. Numbers after ± are the reported error.

Structure (SMILES) = CC(C)C[C@H](NC(=O)[C@H](CCCCN)NC(=O)[C@H](CCC(=O)O)NC(=O)[C@H](C)NC(=O)[C@@H](NC(=O)[C@H](CCCCN)NC(=O)[C@H](CC(=O)O)NC(=O)[C@H](Cc1ccc(O)cc1)NC(=O)[C@H](Cc1ccccc1)NC(=O)[C@H](C)NC(=O)[C@H](CCCCN)NC(=O)[C@H](CC(C)C)NC(=O)[C@H](Cc1c[nH]c2ccccc12)NC(=O)[C@@H](N)CC(=O)O)C(C)C)C(=O)N[C@@H](CCCCN)C(=O)N[C@@H](CCC(=O)O)C(=O)N[C@@H](C)C(=O)N[C@@H](Cc1ccccc1)C(=O)N1CCC[C@H]1C(=O)N[C@@H](CC(=O)O)C(=O)N[C@@H](Cc1c[nH]c2ccccc12)C(=O)N[C@@H](C)C(=O)N[C@@H](CCCCN)C(=O)N[C@@H](C)C(=O)N[C@@H](C)C(=O)N[C@@H](Cc1ccc(O)cc1)C(=O)N[C@@H](CC(=O)O)C(=O)N[C@@H](CCCCN)C(=O)N[C@@H](C)C(=O)N[C@@H](C)C(=O)N[C@@H](CCC(=O)O)C(=O)N[C@@H](CCCCN)C(=O)N[C@@H](C)C(=O)N[C@@H](CCCCN)C(=O)N[C@@H](CCC(=O)O)C(=O)N[C@@H](C)C(=O)N[C@@H](C)C(=O)O; test system = cynomolgus monkey male, plasma; setting = intravenous infusion, 8 mg/kg every other day, day 27; quantity = AUC(0-inf); value = 607000 ng·h/mL
Structure (SMILES) = C[C@@H](O)[C@H](NC(=O)[C@H](CCCCN)NC(=O)COCCN)C(=O)N[C@@H](CCCNC(=N)N)C(=O)NC(C)(C)C(=O)N[C@@H](CCCNC(=N)N)C(=O)NC(C)(C)C(=O)N[C@H](C(=O)N[C@@H](CO)C(=O)N[C@@H](Cc1c[nH]cn1)C(=O)N[C@@H](Cc1ccc(O)cc1)C(=O)NCC(=O)O)[C@@H](C)O; test system = C57BL/6 mouse, blood; setting = intravenous, 50 mg/kg, 10 h; quantity = lactate dehydrogenase; value = 1000 to 2400 U/L
Structure (SMILES) = CCOP(=O)(OCC)OCCCCOC(=O)CC1=C(C)C(=Cc2ccc([S+](C)[O-])cc2)c2ccc(F)cc21 (centres unmarked); test system = mice, lung; setting = inhalation, 6.5 mg/kg; scale = baseline: drug plus metabolites; quantity = intact drug in lungs; value = 43%
Structure (SMILES) = COC[C@@H](NC(C)=O)C(=O)NCc1ccc(OCc2ccc(OC(F)(F)F)cc2)cc1; test = behavioural toxicity; test system = rat; setting = oral; quantity = TD50; value = 250 to 500 mg/kg
Structure (SMILES) = O=C(c1ccc(F)cc1)C1CCN(C2Cc3c(cccc3OCC[18F])CC2O)CC1 (single isomer, unassigned; (-)); test system = rat, brain; setting = 5 min; quantity = tracer uptake; value = 0.144 %ID/g
Structure (SMILES) = OC1CCN(c2ncc(-c3cc4ccc([18F])cc4[nH]3)cn2)CC1; test = dynamic PET; test system = Sprague-Dawley rats, both sexes, whole brain; setting = intravenous, dose not given; quantity = peak brain radioactivity; value = 1.7 ± 0.2 SUV
Structure (SMILES) = CC[C@@H]1C[C@]1(NC(=O)[C@@H]1C[C@@]2(CN1C(=O)[C@@H](NC(=O)[C@@H](NC(=O)[C@@H]1CCCCN1C(C)C)C1CCCCC1)C(C)(C)C)C(C)(C)C21CCC1)C(=O)NS(=O)(=O)N1CCCC1; test system = human; setting = oral, 50 mg, added: ritonavir 100 mg simultaneously; quantity = subjects with abdominal pain; value = 0%
Structure (SMILES) = COc1ccc2c3c(c4cc(OC)c(OC)cc4c2c1)CN1CCCC1C3 (centres unmarked); test system = swine cells; setting = 24 (unit not given); quantity = CC50; value = 71.5 ± 2.15 µM
Structure (SMILES) = COc1cc(NC(=O)C(=O)c2c(C)n(Cc3ccc(Cl)cc3)c3ccc(C)cc23)ccn1; test system = male cynomolgus monkey, plasma; setting = oral, 10 mg/kg; quantity = AUC(0-inf); value = 3110 ng·h/mL
Structure (SMILES) = CCCCCCCCCCCCC(=O)O.O=C1CCCC2C3CCCN4CCCC(CN12)C34 (centres unmarked); test = electrical conductivity; test system = water; setting = 303.15 K; quantity = standard enthalpy of aggregation; value = -0.626 kcal/mol
Structure (SMILES) = CC[C@H](C)C(=O)N1CCC(NC(=O)Nc2ccc(OC(F)(F)F)c(F)c2)CC1; test system = healthy volunteers; setting = oral, 8 mg single dose; quantity = subjects with trichomoniasis TEAE; value = 0%
Structure (SMILES) = CCCCCCCC(=O)OC[C@H](NC(=O)[C@H](CO)NC(=O)CN)C(=O)N[C@@H](Cc1ccccc1)C(=O)N[C@@H](CC(C)C)C(=O)N[C@@H](CO)C(=O)N1CCC[C@H]1C(=O)N[C@@H](CCC(=O)O)C(=O)N[C@@H](Cc1cnc[nH]1)C(=O)N[C@@H](CCC(N)=O)C(=O)N[C@@H](CCCNC(=N)N)C(=O)N[C@H](C(=O)N[C@@H](CCC(N)=O)C(=O)N[C@@H](CCC(N)=O)C(=O)N[C@@H](CCCNC(=N)N)C(=O)N[C@@H](CCCCN)C(=O)N[C@@H](CCC(=O)O)C(=O)N[C@@H](CO)C(=O)N[C@@H](CCCCN)C(=O)N[C@@H](CCCCN)C(=O)N1CCC[C@H]1C(=O)N1CCC[C@H]1C(=O)N[C@@H](C)C(=O)N[C@@H](CCCCN)C(=O)N[C@@H](CC(C)C)C(=O)N[C@@H](CCC(N)=O)C(=O)N1CCC[C@H]1C(=O)N[C@@H](CCCNC(=N)N)C(=O)O)C(C)C; test system = human, plasma; setting = intravenous infusion, 3 µg/kg/h, 65 min infusion; quantity = dose-normalised Cmax; value = 3.91 ± 0.79
Structure (SMILES) = CN(C)C(CNC(=O)Nc1cc(C(F)(F)F)ccc1N1CCOCC1)c1ccncc1 (centres unmarked); test system = mouse, serum; setting = intraperitoneal, 240 mg/kg single dose; quantity = phosphorus; value = 8 mg/dL
Structure (SMILES) = C[C@H]1N=C(c2ccccc2F)c2cc(Br)ccc2-n2cnc(C(=O)NCCS(=O)(=O)O)c21; test system = Swiss Webster mouse; setting = intravenous, 250 µg of parent drug, 0 to 48 h; scale = baseline: dose; quantity = excretion in urine and feces; value = 7.6 ± 3.2%
Structure (SMILES) = CC(C)[C@H](NC(=O)CNC(=O)[C@H](CCC(N)=O)NC(=O)[C@H](C)N)C(=O)O; test = severe intensity; test system = human; setting = 20 mg/kg, 3 days, thrice daily dosing; quantity = subjects with adverse events; value = 0%
Structure (SMILES) = COC(=O)C[C@](O)(CCCC(C)(C)OC(C)=O)C(=O)O[C@@H]1C(OC)=C[C@]23CCCN2CCc2cc4c(cc2[C@H]13)OCO4; test system = CD1 mouse, bone marrow; setting = oral, 1 mg/kg, 0.5 h; quantity = tissue concentration; value = 154 ng/mL
Structure (SMILES) = CC(C)C[C@@H](N)C(=O)NCC(=O)N[C@H](C)C(=O)N[C@H](CO)C(=O)N[C@H](Cc1c[nH]c2ccccc12)C(=O)N[C@H](Cc1c[nH]cn1)C(=O)N[C@H](CCCNC(=N)N)C(=O)N1CCC[C@@H]1C(=O)N[C@H](CC(=O)O)C(=O)N[C@H](CCCCN)C(=O)N[C@H](CS)C(=O)N[C@H](CS)C(=O)N[C@H](CC(C)C)C(=O)NCC(=O)N[C@H](Cc1ccc(O)cc1)C(=O)N[C@H](CCC(N)=O)C(=O)N[C@H](CCCCN)C(=O)N[C@H](CCCNC(=N)N)C(=O)N1CCC[C@@H]1C(=O)N[C@H](CC(C)C)C(=O)N1CCC[C@@H]1C(N)=O; test = LC-MS/MS; test system = rat plasma; setting = 25 ng/mL, -80 to 25 °C, 3 freeze-thaw cycles; quantity = measured concentration; value = 22.9 ± 2.3 ng/mL
Structure (SMILES) = CC[C@H](C)[C@H](NC(=O)[C@H](C)NC(=O)[C@H](CCCCN)NC(=O)[C@H](CC(C)C)NC(=O)[C@@H](N)Cc1ccccc1)C(=O)N[C@@H](CCCCN)C(=O)N[C@@H](CCCCN)C(=O)N[C@@H](Cc1ccccc1)C(=O)NCC(=O)N[C@@H](CCCCN)C(=O)N[C@@H](CCC(=O)O)C(=O)N[C@@H](Cc1ccccc1)C(=O)N[C@@H](CCCCN)C(=O)N[C@@H](CCCCN)C(=O)N[C@H](C(=O)NCC(=O)N[C@@H](C)C(=O)N[C@@H](CCCCN)C(=O)N[C@@H](CC(C)C)C(=O)N[C@@H](CCCCN)C(=O)O)[C@@H](C)CC; test system = BALB/c mice; setting = intraperitoneal, 64 mg/kg every 12 h for 5 days; scale = baseline: untreated; quantity = serum creatinine, BUN, ALT, ALP; value = no effect
Structure (SMILES) = CC[C@H](C)[C@H](N)C(=O)N[C@H](C(=O)N[C@@H](CO)C(=O)N[C@H](C(=O)N[C@H](C(=O)NCC(=O)N[C@@H](CC(=O)O)C(=O)N[C@@H](CC(C)C)C(=O)N[C@H](C(=O)N[C@@H](CCCCN)C(=O)N[C@@H](Cc1c[nH]c2ccccc12)C(=O)N[C@H](C(=O)N[C@H](C(=O)N[C@@H](CC(=O)O)C(=O)N[C@H](C(=O)N[C@H](C(=O)N[C@@H](CC(N)=O)C(=O)N[C@@H](CCCCN)C(=O)N[C@@H](Cc1ccccc1)C(=O)N[C@H](C(=O)N[C@@H](CCCCN)C(=O)N[C@@H](CCCCN)C(=O)O)[C@@H](C)O)C(C)C)[C@@H](C)O)[C@@H](C)CC)[C@@H](C)CC)C(C)C)[C@@H](C)CC)[C@@H](C)O)[C@@H](C)CC; test = circular dichroism; test system = POPC vesicles; setting = pH 7.5; quantity = fractional helicity; value = 1
Structure (SMILES) = O=C1C(P(=O)(O)O)CCCN1O (centres unmarked); test system = nude mice; setting = intravenous, months, neutralized with NaOH; quantity = tolerated dose; value = 150 mg/kg/day
Structure (SMILES) = Cc1cc(Nc2nc(C[C@@]3(C(=O)O)CCN(Cc4cccc(Cl)c4F)[C@H](C)C3)cc(C)c2F)n[nH]1; test system = beagle dog, plasma; setting = oral, 1 mg/kg, single dose; quantity = half-life; value = 4.8 h
Structure (SMILES) = CC[C@H](C)[C@H](NC(=O)CNC(=O)[C@H](CC(C)C)NC(=O)[C@H](Cc1ccccc1)NC(=O)CN)C(=O)N[C@@H](CC(C)C)C(=O)N[C@@H](Cc1ccccc1)C(=O)N[C@@H](Cc1c[nH]cn1)C(=O)NCC(=O)N[C@H](C(=O)N[C@@H](Cc1c[nH]cn1)C(=O)N[C@@H](Cc1c[nH]cn1)C(=O)NCC(=O)N[C@@H](CCCNC(=N)N)C(=O)N[C@@H](CCCCN)C(=O)N[C@@H](CCCCN)C(=O)N[C@@H](C)C(=O)N[C@@H](CC(C)C)C(=O)N[C@@H](Cc1c[nH]cn1)C(=O)N[C@@H](CCSC)C(=O)N[C@@H](CC(N)=O)C(=O)N[C@@H](CO)C(=O)N[C@@H](CCC(=O)O)C(=O)N[C@@H](CCCNC(=N)N)C(=O)N[C@@H](CCCNC(=N)N)C(=O)N[C@@H](CO)C(=O)O)C(C)C; test system = zebrafish embryos; setting = 1 h, 4, 28, 52 hpf; quantity = acute toxic concentration; value = 25 µg/mL
Structure (SMILES) = CCNc1cc2[o+]c3cc(NCC)c(C)cc3c(-c3ccccc3C(=O)OCCOCC[18F])c2cc1C; test system = rat; setting = 15 min; scale = baseline: heart over blood; quantity = tissue uptake ratio; value = 10.1
Structure (SMILES) = COc1ccc(C)cc1NC(=O)OC1CC2CCCC(C1)N2Cc1ccc(CC[18F])cc1 (centres unmarked); test system = BALB/c mice, EMT6 tumour, brain; setting = 30 min; quantity = tissue uptake; value = 2.12 ± 0.21 %ID/g
Structure (SMILES) = C[C@@H]1CC[C@H]2[C@@H](C)CO[C@@H]3O[C@@]4(C)CC[C@@H]1[C@]32OO4; test = refers to: compound; test system = rat, plasma; setting = 50.0 ng/mL spiked, 24 h, autosampler at 4 °C; quantity = measured concentration; value = 46.7 ± 2.04 ng/mL
Structure (SMILES) = Cc1ccc2ccc3ccc(C)nc3c2n1.O.[99Tc+].[C-]#[O+].[C-]#[O+].[C-]#[O+]; test = RP-HPLC C18 column, refers to: free diimine ligand; test system = MeCN:water 40:60, 0.1% TFA; setting = isocratic elution; quantity = capacity factor; value = 0.97
Structure (SMILES) = CCCCCCCC/C=C\CCCCCCCCOP(O)(O)=S.N; test system = mouse, male, irradiated; setting = sc, dose not given, 15.6 Gy partial-body, dosed 24 h after; quantity = Cmax; value = 622 ng/mL
Structure (SMILES) = CC(=O)[O][Cu+].CN1CCN2CCN(C)CCN(CC1)CC2; test = cyclic voltammetry, refers to: Cu(II)/Cu(I); test system = acetonitrile; setting = 1 mM, copper acetate complex; scale = baseline: SHE; quantity = reduction potential; value = -0.893 V
Structure (SMILES) = CC(=CCC(O)C(C)=Cc1csc(C)n1)CC=CC(C)C(O)C(C)C(=O)C(C)(C)C(O)CC(=O)O (centres unmarked); test system = human, plasma; setting = intravenous infusion, 20.0 mg/m2 KOS-1584, 3 h infusion, cycle 1; quantity = AUC; value = 233 ± 156 ng·h/mL

Repeated from above:
Structure (SMILES) = CCNc1cc2[o+]c3cc(NCC)c(C)cc3c(-c3ccccc3C(=O)OCCOCC[18F])c2cc1C; test system = rat; setting = 15 min; scale = baseline: heart over blood; quantity = tissue uptake ratio; value = 10.1
Structure (SMILES) = COc1ccc(C)cc1NC(=O)OC1CC2CCCC(C1)N2Cc1ccc(CC[18F])cc1 (centres unmarked); test system = BALB/c mice, EMT6 tumour, brain; setting = 30 min; quantity = tissue uptake; value = 2.12 ± 0.21 %ID/g
Structure (SMILES) = C[C@@H]1CC[C@H]2[C@@H](C)CO[C@@H]3O[C@@]4(C)CC[C@@H]1[C@]32OO4; test = refers to: compound; test system = rat, plasma; setting = 50.0 ng/mL spiked, 24 h, autosampler at 4 °C; quantity = measured concentration; value = 46.7 ± 2.04 ng/mL
Structure (SMILES) = Cc1ccc2ccc3ccc(C)nc3c2n1.O.[99Tc+].[C-]#[O+].[C-]#[O+].[C-]#[O+]; test = RP-HPLC C18 column, refers to: free diimine ligand; test system = MeCN:water 40:60, 0.1% TFA; setting = isocratic elution; quantity = capacity factor; value = 0.97
